Published values collected from several papers.
Each numbered part is a random draw from the data of one study; scales do not carry over between parts. Substitutions count along the parent as printed.
Chain of UniProt P10721 (whole entry, unmodified, looked up): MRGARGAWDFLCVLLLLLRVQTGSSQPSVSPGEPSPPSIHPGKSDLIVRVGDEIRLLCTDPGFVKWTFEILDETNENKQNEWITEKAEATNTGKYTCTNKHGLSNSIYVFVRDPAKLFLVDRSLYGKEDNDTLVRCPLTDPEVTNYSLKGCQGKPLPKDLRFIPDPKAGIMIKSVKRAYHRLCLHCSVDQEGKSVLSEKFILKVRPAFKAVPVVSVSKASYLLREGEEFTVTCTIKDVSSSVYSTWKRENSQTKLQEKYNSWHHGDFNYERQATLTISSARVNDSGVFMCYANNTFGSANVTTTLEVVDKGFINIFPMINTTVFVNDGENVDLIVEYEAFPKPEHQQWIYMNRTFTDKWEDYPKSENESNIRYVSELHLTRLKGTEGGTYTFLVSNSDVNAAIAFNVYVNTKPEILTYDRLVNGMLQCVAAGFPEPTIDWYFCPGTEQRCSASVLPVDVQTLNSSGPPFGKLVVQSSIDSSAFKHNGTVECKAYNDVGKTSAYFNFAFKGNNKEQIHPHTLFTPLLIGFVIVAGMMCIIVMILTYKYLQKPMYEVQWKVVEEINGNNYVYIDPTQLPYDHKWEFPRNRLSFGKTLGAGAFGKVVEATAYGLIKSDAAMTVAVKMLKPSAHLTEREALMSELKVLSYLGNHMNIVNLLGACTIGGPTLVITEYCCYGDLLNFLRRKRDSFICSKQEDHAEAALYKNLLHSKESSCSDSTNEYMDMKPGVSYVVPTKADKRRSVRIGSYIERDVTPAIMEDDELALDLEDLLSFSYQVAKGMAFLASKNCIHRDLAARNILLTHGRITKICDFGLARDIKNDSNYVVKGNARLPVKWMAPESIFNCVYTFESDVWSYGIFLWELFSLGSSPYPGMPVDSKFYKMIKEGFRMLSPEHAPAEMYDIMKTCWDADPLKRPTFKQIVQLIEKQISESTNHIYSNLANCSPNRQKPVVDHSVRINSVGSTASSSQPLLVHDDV
Chain of UniProt P42681 (whole entry, looked up): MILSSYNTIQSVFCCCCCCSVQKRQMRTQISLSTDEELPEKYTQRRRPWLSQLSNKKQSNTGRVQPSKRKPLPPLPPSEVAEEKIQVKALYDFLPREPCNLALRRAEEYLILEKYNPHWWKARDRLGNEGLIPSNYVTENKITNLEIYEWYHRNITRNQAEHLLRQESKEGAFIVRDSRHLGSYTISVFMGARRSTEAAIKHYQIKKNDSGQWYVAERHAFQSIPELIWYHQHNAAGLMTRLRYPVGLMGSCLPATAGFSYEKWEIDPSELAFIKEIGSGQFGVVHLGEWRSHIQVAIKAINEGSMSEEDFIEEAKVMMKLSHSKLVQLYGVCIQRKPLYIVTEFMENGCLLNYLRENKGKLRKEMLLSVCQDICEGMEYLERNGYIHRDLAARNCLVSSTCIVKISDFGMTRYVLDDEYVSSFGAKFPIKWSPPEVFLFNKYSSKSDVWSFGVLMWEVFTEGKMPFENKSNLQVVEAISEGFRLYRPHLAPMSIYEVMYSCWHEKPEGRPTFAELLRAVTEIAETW
Chain of UniProt Q8TDC3 (whole entry, looked up): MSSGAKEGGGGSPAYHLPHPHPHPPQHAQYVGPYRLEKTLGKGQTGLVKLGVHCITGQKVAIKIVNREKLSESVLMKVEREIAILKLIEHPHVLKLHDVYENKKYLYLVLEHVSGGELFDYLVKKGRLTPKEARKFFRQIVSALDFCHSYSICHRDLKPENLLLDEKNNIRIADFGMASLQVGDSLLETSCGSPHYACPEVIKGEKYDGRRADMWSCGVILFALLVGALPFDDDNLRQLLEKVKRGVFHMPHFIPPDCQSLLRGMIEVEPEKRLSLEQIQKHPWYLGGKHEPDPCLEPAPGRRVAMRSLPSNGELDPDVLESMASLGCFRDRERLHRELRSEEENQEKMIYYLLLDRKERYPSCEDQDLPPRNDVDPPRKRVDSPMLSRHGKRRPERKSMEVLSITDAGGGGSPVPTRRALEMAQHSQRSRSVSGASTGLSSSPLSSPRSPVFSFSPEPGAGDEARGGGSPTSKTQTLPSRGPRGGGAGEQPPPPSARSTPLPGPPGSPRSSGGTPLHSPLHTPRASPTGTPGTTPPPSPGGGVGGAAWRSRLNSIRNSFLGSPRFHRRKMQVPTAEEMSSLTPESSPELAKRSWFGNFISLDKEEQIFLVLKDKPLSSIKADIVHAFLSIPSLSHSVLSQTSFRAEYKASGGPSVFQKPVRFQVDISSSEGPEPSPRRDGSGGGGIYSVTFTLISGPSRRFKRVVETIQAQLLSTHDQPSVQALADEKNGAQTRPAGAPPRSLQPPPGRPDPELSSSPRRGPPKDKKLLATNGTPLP
Chain of UniProt Q9Y4K4 (whole entry, looked up): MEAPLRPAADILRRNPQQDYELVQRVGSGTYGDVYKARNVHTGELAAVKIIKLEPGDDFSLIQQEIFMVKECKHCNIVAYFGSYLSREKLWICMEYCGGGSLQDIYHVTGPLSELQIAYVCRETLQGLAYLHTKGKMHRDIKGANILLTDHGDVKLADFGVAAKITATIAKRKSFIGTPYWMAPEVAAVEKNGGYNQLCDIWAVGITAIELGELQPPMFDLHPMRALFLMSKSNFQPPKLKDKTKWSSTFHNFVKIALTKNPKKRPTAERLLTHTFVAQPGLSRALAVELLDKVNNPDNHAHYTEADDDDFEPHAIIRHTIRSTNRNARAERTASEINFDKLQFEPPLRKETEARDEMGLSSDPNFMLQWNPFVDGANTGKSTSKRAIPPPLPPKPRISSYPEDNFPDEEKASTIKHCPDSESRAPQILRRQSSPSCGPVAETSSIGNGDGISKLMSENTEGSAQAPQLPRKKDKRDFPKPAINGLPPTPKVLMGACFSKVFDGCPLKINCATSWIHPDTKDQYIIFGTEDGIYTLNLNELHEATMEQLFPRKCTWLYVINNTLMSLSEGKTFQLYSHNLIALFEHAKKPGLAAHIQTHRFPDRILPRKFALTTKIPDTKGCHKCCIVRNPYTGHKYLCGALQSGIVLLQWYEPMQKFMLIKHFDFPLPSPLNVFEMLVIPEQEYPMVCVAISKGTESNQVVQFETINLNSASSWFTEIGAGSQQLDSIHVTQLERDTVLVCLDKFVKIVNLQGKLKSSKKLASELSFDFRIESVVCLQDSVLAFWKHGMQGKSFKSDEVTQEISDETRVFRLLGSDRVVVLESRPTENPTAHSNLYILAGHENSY
Chain of UniProt Q7KZI7 (whole entry, looked up): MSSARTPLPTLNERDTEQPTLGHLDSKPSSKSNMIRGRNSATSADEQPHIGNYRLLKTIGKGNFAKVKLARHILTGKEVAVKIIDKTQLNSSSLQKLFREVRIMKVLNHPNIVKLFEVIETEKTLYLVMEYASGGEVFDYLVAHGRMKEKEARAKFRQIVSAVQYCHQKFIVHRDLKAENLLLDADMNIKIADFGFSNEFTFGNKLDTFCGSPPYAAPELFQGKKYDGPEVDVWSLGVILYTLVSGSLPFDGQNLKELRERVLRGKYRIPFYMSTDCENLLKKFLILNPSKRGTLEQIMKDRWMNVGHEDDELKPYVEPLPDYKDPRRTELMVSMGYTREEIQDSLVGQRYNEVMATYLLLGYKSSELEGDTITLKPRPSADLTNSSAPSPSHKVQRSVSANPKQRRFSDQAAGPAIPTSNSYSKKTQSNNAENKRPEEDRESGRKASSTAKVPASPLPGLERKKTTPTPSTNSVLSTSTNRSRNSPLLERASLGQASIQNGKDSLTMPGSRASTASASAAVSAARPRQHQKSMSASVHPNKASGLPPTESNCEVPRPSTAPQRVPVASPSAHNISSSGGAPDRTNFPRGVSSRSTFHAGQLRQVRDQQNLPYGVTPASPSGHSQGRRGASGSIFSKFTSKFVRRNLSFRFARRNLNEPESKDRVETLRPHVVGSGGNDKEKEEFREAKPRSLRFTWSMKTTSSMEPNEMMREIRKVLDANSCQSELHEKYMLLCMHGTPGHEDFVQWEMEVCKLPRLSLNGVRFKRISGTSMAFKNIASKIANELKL
Chain of UniProt Q16539 (whole entry, looked up): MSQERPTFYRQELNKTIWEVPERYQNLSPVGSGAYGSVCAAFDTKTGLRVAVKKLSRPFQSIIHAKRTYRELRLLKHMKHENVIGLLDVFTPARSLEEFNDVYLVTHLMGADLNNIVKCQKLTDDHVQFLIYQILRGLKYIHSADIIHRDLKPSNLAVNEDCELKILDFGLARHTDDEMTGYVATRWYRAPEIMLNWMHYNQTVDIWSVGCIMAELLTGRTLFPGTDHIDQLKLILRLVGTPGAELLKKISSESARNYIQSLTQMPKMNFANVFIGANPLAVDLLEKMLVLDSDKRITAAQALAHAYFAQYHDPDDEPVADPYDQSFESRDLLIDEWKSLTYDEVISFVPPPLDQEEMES

Series 1
Target: Transcriptional repressor CTCF (CTCF, Homo sapiens, UniProt P49711, residues 1-727, full length assumed)
Chain of UniProt P49711 (whole entry, looked up): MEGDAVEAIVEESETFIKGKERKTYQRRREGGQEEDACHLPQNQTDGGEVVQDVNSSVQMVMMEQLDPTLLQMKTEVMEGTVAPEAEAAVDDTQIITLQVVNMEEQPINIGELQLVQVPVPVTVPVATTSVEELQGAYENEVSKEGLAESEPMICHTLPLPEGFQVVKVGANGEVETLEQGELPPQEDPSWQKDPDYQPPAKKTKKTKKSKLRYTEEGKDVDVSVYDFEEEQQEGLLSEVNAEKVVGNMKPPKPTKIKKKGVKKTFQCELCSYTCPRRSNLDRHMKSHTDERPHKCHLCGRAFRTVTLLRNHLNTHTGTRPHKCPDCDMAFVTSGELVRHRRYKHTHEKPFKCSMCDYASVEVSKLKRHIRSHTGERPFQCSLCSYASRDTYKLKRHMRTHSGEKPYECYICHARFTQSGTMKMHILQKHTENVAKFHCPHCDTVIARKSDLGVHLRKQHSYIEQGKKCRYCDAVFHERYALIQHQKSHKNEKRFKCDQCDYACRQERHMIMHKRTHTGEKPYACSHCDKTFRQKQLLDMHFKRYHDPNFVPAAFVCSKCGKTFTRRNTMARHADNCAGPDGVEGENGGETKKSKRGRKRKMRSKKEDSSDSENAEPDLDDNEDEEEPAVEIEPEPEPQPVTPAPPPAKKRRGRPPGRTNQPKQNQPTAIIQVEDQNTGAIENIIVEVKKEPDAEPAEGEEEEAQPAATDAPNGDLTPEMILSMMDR
Method: protein-binding microarray
Molecule type: double-stranded DNA, one strand shown
Sample: in vitro
Tested at: not given
Setting: k-mer, scored over probes, only values ≥0.25
Direction: higher = stronger binding
Sequence | E-score
AATGTAAA | 0.254
GCGCGTTA | 0.331
GAATGCGC | 0.286
ATATATTC | 0.295
AAAAATAC | 0.262
AGTGCGCC | 0.291
AATAATGA | 0.279
TACGTATA | 0.347

Series 2
SMILES: CCCC(=O)Oc1ccc2[nH]c(C(=O)c3cc4ccccc4[nH]3)cc2c1
Effect on: enzyme activity
Mode: inhibitor
Tested at: 0.5 µM
Baseline: control
target | remaining activity [%]
MET (Homo sapiens, UniProt P08581) | 103
NEK3 (Homo sapiens, UniProt P51956) | 95.5
MARK4 (Homo sapiens, UniProt Q96L34) | 84.1
DDR2 (Homo sapiens, UniProt Q16832) | 89.9
MAP2K1 (Homo sapiens, UniProt Q02750) | 99.9
CAMK4 (Homo sapiens, UniProt Q16566) | 111
MAPK14 (Homo sapiens, UniProt Q16539) | 102
ROCK1 (Homo sapiens, UniProt Q13464) | 105
AKT2 (Homo sapiens, UniProt P31751) | 105
PLK3 (Homo sapiens, UniProt Q9H4B4) | 98.4
CLK3 (Homo sapiens, UniProt P49761) | 96.9
Myosin-IIIb (MYO3B, Homo sapiens, UniProt Q8WXR4) | 98.6
TXK (Homo sapiens, UniProt P42681) | 99.1
MARK2 (Homo sapiens, UniProt Q7KZI7) | 83.1

Series 3
Target: OGT, full length, His-tagged (human)
Method: phage display, sequencing
Sample: in vitro
Tested at: 1 µg OGT
Setting: single substitutions, 15-mer displayed peptide, unchanged parent 19.6
Baseline: input library
Direction: higher = stronger binding
Starting sequence: peptide; TAPFYPPAYQIQVFK
Substitution | fold enrichment
K15P | 8.17 fold
Y5A | 0.924 fold
T1V | 21 fold
Q10D | 0.434 fold
T1M | 9.4 fold
T1A | 17.6 fold
T1D | 27.4 fold
F14M | 12.7 fold

Series 4
SMILES: O=C1CCc2cc(Nc3cc(OC4CCOCC4)c([N+](=O)[O-])cc3Cl)ccc2N1
Effect on: cell-free assay
Method: competition with immobilised ligand
Tested at: 1 µM
target | remaining binding [%]
PIK3CD (Homo sapiens, UniProt O00329) | 94
SRPK2 (Homo sapiens, UniProt P78362) | 100
KIT (Homo sapiens, UniProt P10721, T670I/V559D) | 94
MAP4K5 (Homo sapiens, UniProt Q9Y4K4) | 87
MYLK (Homo sapiens, UniProt Q15746) | 94
KIT (Homo sapiens, UniProt P10721, V559D/V654A) | 92
HIPK2 (Homo sapiens, UniProt Q9H2X6) | 100
STK3 (Homo sapiens, UniProt Q13188) | 100
DDR1 (Homo sapiens, UniProt Q08345) | 94
Tyrosine-protein kinase ABL1, phosphorylated (ABL1, Homo sapiens, UniProt P00519, Q252H) | 100
BMX (Homo sapiens, UniProt P51813) | 69
NEK10 (Homo sapiens, UniProt Q6ZWH5) | 100
Tyrosine-protein kinase ABL1, non-phosphorylated (ABL1, Homo sapiens, UniProt P00519, H396P) | 89
EPHA5 (Homo sapiens, UniProt P54756) | 93
CIT (Homo sapiens, UniProt O14578) | 100
SNRK (Homo sapiens, UniProt Q9NRH2) | 100
CSNK1A1 (Homo sapiens, UniProt P48729) | 100
BRSK1 (Homo sapiens, UniProt Q8TDC3) | 100
EGFR (Homo sapiens, UniProt P00533, G719S) | 100

Some of these lines once more (series 4):
target | remaining binding [%]
EGFR (Homo sapiens, UniProt P00533, G719S) | 100
KIT (Homo sapiens, UniProt P10721, T670I/V559D) | 94
BRSK1 (Homo sapiens, UniProt Q8TDC3) | 100
